Experimental data gathered from unrelated publications.

SMILES | system | setting | measurement | value
Cn1c2cc([S+](C)[O-])sc2c2cnn(Cc3cccc(N)c3)c(=O)c21 (centres unmarked) | male BALB/c mouse, plasma | oral, 10 mg/kg, single dose | AUC(0-t) | 24300 ng·h/mL
C/C(N)=N/C(=N\S(=O)(=O)c1ccc(C(F)(F)F)cc1)N1C[C@H](c2ccccc2)C(c2ccc(Cl)cc2)=N1 | male C57BL/6 mouse, liver | intravenous, 5 mg/kg | AUC(0-inf) | 17600 ng·h/mL
CN[C@H](CC(C)C)C(=O)N[C@H]1C(=O)N[C@@H](CC(N)=O)C(=O)N[C@H]2C(=O)N[C@H]3C(=O)N[C@H](C(=O)N[C@H](C(=O)N[C@H](CCCNC(=N)N)C(N)=O)c4cc(O)cc(O)c4-c4cc3ccc4O)[C@H](O)c3ccc(c(Cl)c3)Oc3cc2cc(c3O[C@@H]2O[C@H](CO)[C@@H](O)[C@H](O)[C@H]2O[C@H]2C[C@](C)(N)[C@H](O)[C@H](C)O2)Oc2ccc(cc2Cl)[C@H]1O | female CD-1 mouse, plasma | intravenous, 15 mg/kg, single dose | AUC | 24200 ng·h/mL
COC1C=COC2(C)Oc3c(C)c(O)c4c(c3C2=O)C2=NC3(CCN(CC(C)C)CC3)NC2=C(NC(=O)C(C)=CC=CC(C)C(O)C(C)C(O)C(C)C(OC(=O)Nc2cccnn2)C1C)C4=O (centres unmarked) | female CD-1 mouse, plasma | oral, 10 mg/kg | AUC | 32700 ng·h/mL
CCn1cc(-c2cc(Cn3ccnc3)cc3c2CCN([C@H](c2cc(OC)ccn2)C2CC2)C3=O)c(C(F)(F)F)n1 | male CD-1 mouse, plasma | oral, 10 mg/kg | AUC(0-t) | 3600 ng·h/mL
O=C(OC(C(F)(F)F)C(F)(F)F)N1CCC(CNS(=O)(=O)c2ccc(Cl)cc2)CC1 | male SCID mouse, plasma | oral, 10 mg/kg | AUC(0-t) | 1110 ng·h/mL
COc1cnc2cccc(N3CCc4c(cc(Cn5ccnc5)cc4-c4cn(C)nc4C(F)(F)F)C3=O)c2c1 | male CD-1 mouse, plasma | oral, 50 mg/kg | AUC(0-t) | 50500 ng·h/mL
Cc1cc(NC(=O)[C@H](O)c2cc(F)cc(F)c2)ccc1-c1cnc(N)c(C(=O)NC(C)C)c1 | female nude mouse, plasma | oral, 3 mg/kg, single dose | AUC(0-t) | 1200 ng·h/mL

For quick reference, copied from above:
SMILES | system | setting | measurement | value
COc1cnc2cccc(N3CCc4c(cc(Cn5ccnc5)cc4-c4cn(C)nc4C(F)(F)F)C3=O)c2c1 | male CD-1 mouse, plasma | oral, 50 mg/kg | AUC(0-t) | 50500 ng·h/mL
